Experimental data gathered from unrelated publications.
Every numbered part comes from another study and shows a few of its results, in no order. Positions count from the first letter of the parent shown.

Series 1 — method: protein binding microarray; molecule type: double-stranded DNA, one strand shown; medium: in vitro; concentration: not given; reference: not given; direction: higher = stronger binding
Target: Histone acetyltransferase KAT6A, winged helix 2, GST fusion (KAT6A, Homo sapiens, UniProt Q92794, residues 85-181)
Setting: 8-mer, flanks averaged, mean of 2 arrays, mostly near background
Construct (chain): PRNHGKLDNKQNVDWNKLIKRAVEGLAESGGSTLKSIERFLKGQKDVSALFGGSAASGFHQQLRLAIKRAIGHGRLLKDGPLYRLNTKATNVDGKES
Oligonucleotide | E-score
CTGGTACC | -0.0146
CGGCCATC | -0.0184
GTGCATTA | 0.0918
AGTATCCA | 0.022
CTCCACTC | -0.0891
AGAACGAC | -0.107
CTGTACAG | -0.141
TGGGATAA | 0.000275
CGGGTTGC | 0.0733
AATTCCGA | 0.0713
CCACCGCA | 0.108
CCTAATCG | -0.0116
AATCTGCT | 0.118
TCCCCCCA | -0.168
ATCGTACA | -0.138
AAAGGGGC | 0.0692
CTACTGGA | -0.197
TAAAAACA | -0.109
GCAGGCGA | 0.103
ACAGTTCC | 0.042
ACGCCCCT | -0.135
ATGCGAAC | 0.0366
TGTCCCAA | -0.0338
AACATTGA | -0.0278

Series 2 — method: universal PBM; molecule type: double-stranded DNA, one strand shown; medium: in vitro; concentration: not given; direction: higher = stronger binding
Target: Sal-like protein 4, full length isoform B (SALL4, Homo sapiens, UniProt Q9UJQ4-2, residues 1-616)
Setting: 8-mer, flanks averaged, mean of replicates
Oligonucleotide | E-score
AGCGAATA | 0.142
CACCGGCC | -0.426
ACGGACCC | -0.284
CGTTCGCA | -0.0586
ACAGCTCA | -0.152
CACTGTAA | 0.142
AGCCAGTA | -0.204
AACGGCCC | -0.336
CCAACAAG | -0.171
CCACATGC | 0.138
ATCCGAGA | -0.0689
CAATAAAG | 0.249
CTCATCCC | -0.297
CAGTGGTC | -0.2
TCCGCGCA | -0.164
ACCGCCAC | -0.082
CTTTCAAA | 0.205
AACTCCTA | 0.0193
AATGAAGC | 0.0997
CTTGTCAA | 0.198
CAAGTAAG | 0.12
CCTGGTGA | -0.199
ACCGAATC | 0.00252
CCCTCTGC | -0.274

Series 3 — method: RNA Bind-n-Seq; molecule type: RNA; medium: in vitro; concentration: 365 nM; reference: no-protein control; direction: higher = stronger binding
Target: RNA binding protein fox-1 homolog 2, RRM domain, GST-SBP tag (RBFOX2, Homo sapiens, UniProt O43251-10, residues 100-194)
Setting: natural RNA segment, single round, ends assumed
Residues (chain): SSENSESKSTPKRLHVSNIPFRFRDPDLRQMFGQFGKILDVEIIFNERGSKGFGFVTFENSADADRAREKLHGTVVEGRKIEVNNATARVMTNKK
Oligonucleotide | RBNS enrichment (R)
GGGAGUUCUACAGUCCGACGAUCCUUGCCUCUGUGCUGUGUGUGACGUGACCGGACUUUUCUGCAAACACCAACAUGUUGGGAAACUUGGCUCGAAUCUCUGUGCCUUCGUCUUUCCCAUGGGGAGGGAUUCUUGGAAUUCUCGGGUGCCAA | 0.345
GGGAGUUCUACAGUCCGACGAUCUCUAUCCCAGUUGGGUUCAGACUGCUGUGACUGUGGACACGAUGCUCCUUGUUCUGGGCUCCAGUUUUCCCAUUUGUGAGAUGAGGCAACUUCCAAUGCUUCUCUAGGCCUGGAAUUCUCGGGUGCCAA | 0.209
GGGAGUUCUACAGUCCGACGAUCAAUCCUAAAUCCCAUUUCAAAAAUAUACUUAUCAUUGGAAUUUAUCUCCCAUUUUAACCACUUUUAGAUACUGCUCCUUAUUUAAGUUACCCUUUUAGCAGAUAAUUCGGUGGAAUUCUCGGGUGCCAA | 0.978
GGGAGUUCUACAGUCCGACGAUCUGGAUUACAUUCAUUUCCUGGGAAAGCUAGCUUACCAUACAUUCAAGUUUAUAAAACAAUUUGCCAUAGGCAAAGCCAUUUAAAAAGUUCAUUCUGAAAUUAUUUCAUUUUGGAAUUCUCGGGUGCCAA | 0.528
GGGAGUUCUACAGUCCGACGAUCCUAUAAAGAAAUACAGUUAAUAACAAGGUUUCAAAUUAUUCCUUUAACAUUAAUAGAACAAUCCAAAUGUUGAGCAUAUUUUGAUAUUAAACUAAAGAUCACGUCUCUGUUGGAAUUCUCGGGUGCCAA | 0.412
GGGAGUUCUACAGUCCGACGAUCCUUGUCGUGCUUCAAUGCAUGCCAUUUGUCACUUACCAUACUUCACCAUGGCCGAGCUUCAUGUCACAUGGCCUGGCGAUUGUGCUUGUUCACACUGGGGCCAGGAUUUUUGGAAUUCUCGGGUGCCAA | 0.47
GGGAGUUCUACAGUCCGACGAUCGGGCAGCAGCAGGAGGAAUACCAGGGCCACGGAGGGGCCAGGAGUCUCACAGUGGAGGGCAGACUCUAACAGAUGCCAGCUGAACGCUCGCUGGCCCUGGAUGUCAUACGUGGAAUUCUCGGGUGCCAA | 1.1
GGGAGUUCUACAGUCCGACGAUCGUGCAAGUGUGCACACGUUUGUGGAGAGGAGGGUGUUCUGGCCUGAGAAGGUAAAGAAGAGGCAUGUCCAGUAUGCUUUGCAGGGUGUGUUUGCUCUUUUCCAUGCCCAUUGGAAUUCUCGGGUGCCAA | 1.29
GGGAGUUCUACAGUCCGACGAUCCUUGGACACAGAACACACCAAGAAGGGCUUCAGAAACUAGGGAGGGAAUGCUUGACUCCACGCAUUGAGCCCCUCCUACACAUUGGUACAAGGUCGCUUAGGCCCCUCUAUGGAAUUCUCGGGUGCCAA | 0.638
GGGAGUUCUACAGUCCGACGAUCUUUGUAAUUUUGCAAAACAUAUCUUGAGUUGUUUAAACAGUCAAAAUGUUUGAUAUUUUAUACCAGCUUAUGAGCUCAAAGUACUACAGCAAAGCCUAGCCUGCAUAUCAUGGAAUUCUCGGGUGCCAA | 0.713
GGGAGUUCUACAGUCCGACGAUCAAAUCAGCAUUCAUUUUAAGAAAAGCAACUUUAGUUUCAAAGAUACUUUUAAGCUUCUAAAUUGAUCAUUUAAACUAUUUCUUUAAAUAAGAGAGCCAAAUUAGAGGCUCUGGAAUUCUCGGGUGCCAA | 2.18
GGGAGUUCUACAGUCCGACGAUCAGCGGGCAGGUUCUGCCUGCUUUGGCGGGCAGACACGCGGGCGCGAUCCCACACAGGCUGGCGGGGGCCGGCCCCGAGGCCGCGUGCGUGAGAACCGCGCCGGUGUCCCCUGGAAUUCUCGGGUGCCAA | 0.234

Series 4 — target: CREB3L1, bZIP domain (human); method: DHFR protein complementation; medium: yeast; reference: wild-type JUN-FOS pair; direction: higher = stronger binding
Setting: single substitutions, most at no-binding floor
Starting sequence: JUN, bZIP domain (human); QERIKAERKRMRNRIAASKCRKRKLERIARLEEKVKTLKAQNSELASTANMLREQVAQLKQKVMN; partner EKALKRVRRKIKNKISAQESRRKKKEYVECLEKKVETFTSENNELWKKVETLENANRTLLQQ
Variant | binding fitness [natural log]
V35M | -1.31
L45T | -1.4
L31E | -1.53
L52M | -1.47
R30F | -0.984
L38E | -1.47
A49T | -1.51
A49R | -1.46
R30W | -1.41
M51V | -1.43
L38P | -1.51
A29K | -1.26
V35Q | -1.53
R53W | -1.48
K34F | -1.4
L52S | -1.51
S47T | -1.49
V35E | -1.34
E54G | -1.35
K36S | -1.48
R53F | -1.39
